Assay results pooled from the literature.
Every numbered part comes from another study and shows a few of its results, in no order. Positions count from the first letter of the parent shown.

Set 1
Target: Histone acetyltransferase KAT6A, winged helix 1, GST fusion (KAT6A, Homo sapiens, UniProt Q92794, residues 1-85)
Method: protein binding microarray
Form: double-stranded DNA, one strand shown
Medium: in vitro
Concentration: not given
Setting: 8-mer, flanks averaged, mean of 2 arrays, mostly near background
Reference: not given
Direction: higher = stronger binding
Construct (chain): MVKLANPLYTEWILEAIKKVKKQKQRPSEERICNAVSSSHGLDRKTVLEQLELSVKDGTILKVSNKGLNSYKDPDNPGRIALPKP
| Strand | E-score |
| --- | --- |
| CCACGTAC | -0.144 |
| ATTAATTC | -0.0537 |
| GACGATTA | 0.0641 |
| GACCCAAA | -0.15 |
| GACATATC | -0.0757 |
| ATACTTTA | -0.196 |
| GTGGGTTA | -0.0648 |
| CGCCGTAA | 0.456 |
| ACTGGGTC | -0.217 |
| ACGGACGG | 0.386 |
| ATACGCGA | 0.156 |
| ACAGTTGG | -0.0721 |
| AGAGCCCA | -0.25 |
| GTCCCCAC | -0.0136 |
| AATCAGAG | -0.137 |
| GAGAGCTA | -0.0664 |
| ATCATGAG | -0.0915 |
| CTTCGCGC | 0.245 |
| ACACGTCA | -0.106 |
| ATGCCTGG | -0.281 |
| AGCGGCCA | 0.22 |
| CAGCCCTC | -0.194 |
| ACGATCAT | -0.148 |
| ACCTCACC | -0.137 |
| GAAATCCA | -0.22 |

Set 2
Target: CCNF, cyclin fold, Cln2 fusion (human)
Method: yeast growth competition, sequencing
Medium: yeast
Setting: strong parent motif
Reference: not given
Direction: higher = stronger binding
Starting sequence: CDC25A docking peptide (human); PPHRRRLLFACSP
| Variant | normalised enrichment score |
| --- | --- |
| PPYRRRLLFACSP [H3Y] | 8.49 |
| PPHRRRLLFACST [P13T] | 7.83 |
| PPHNRRLLFACSP [R4N] | 6.26 |
| DPHRRRLLFACSP [P1D] | 6.98 |
| PWHRRRLLFACSP [P2W] | 5.3 |
| PPHRRRLRFACSP [L8R] | 6.02 |
| TPHRRRLLFACSP [P1T] | 6.78 |
| PPHRRRLLFICSP [A10I] | 7.07 |
| PPHRRRLLFAQSP [C11Q] | 8.12 |
| PPHDRRLLFACSP [R4D] | 1.81 |
| PPHRRRLLFACTP [S12T] | 7.04 |
| PPHRHRLLFACSP [R5H] | 1.78 |
| PPHRRRLLFALSP [C11L] | 8 |
| PTHRRRLLFACSP [P2T] | 7.66 |
| PPHRRRLLFACEP [S12E] | 8.31 |
| PPHRRRLLFMCSP [A10M] | 8.05 |
| PPHRRRLLFACAP [S12A] | 7.17 |
| PPHRRRLLFACIP [S12I] | 7.28 |
| MPHRRRLLFACSP [P1M] | 7.51 |
| PPHRRRLLFACSN [P13N] | 8.04 |
| PPHRRRLLFSCSP [A10S] | 7.68 |
| PPHRRRLLFACSG [P13G] | 7.51 |
| PPHRRRLLFAISP [C11I] | 7.75 |
| PPHRRRLQFACSP [L8Q] | 6.44 |
| PPHRRRLLKACSP [F9K] | 0.996 |

Set 3
Target: Ras GTPase-activating protein-binding protein 1, full length (G3BP1, Homo sapiens, UniProt Q13283)
Chain of UniProt Q13283 (whole entry, looked up): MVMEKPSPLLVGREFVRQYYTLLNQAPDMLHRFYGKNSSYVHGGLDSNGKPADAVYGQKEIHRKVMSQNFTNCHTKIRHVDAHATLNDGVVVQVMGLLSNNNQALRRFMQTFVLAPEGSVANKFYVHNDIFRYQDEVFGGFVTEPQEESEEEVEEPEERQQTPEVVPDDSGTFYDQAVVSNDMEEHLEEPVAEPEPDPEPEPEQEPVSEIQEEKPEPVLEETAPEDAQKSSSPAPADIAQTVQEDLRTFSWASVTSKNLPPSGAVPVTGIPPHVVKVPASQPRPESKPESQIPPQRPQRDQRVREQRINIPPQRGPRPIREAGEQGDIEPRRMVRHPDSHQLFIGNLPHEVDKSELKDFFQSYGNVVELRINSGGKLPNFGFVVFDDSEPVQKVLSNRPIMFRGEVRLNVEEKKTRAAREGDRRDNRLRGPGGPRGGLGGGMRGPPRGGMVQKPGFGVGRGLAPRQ
Method: RNA Bind-n-Seq
Form: RNA
Medium: in vitro
Concentration: 200 nM
Setting: whole 134-nt RNA, ends assumed
Together with: 150 mM LiCl
Reference: input library
Direction: higher = stronger binding
Library: 7-deaza-guanosine replaces G
Constant ends, left off below: GGGAGUUCUACAGUCCGACGAUC … UGGAAUUCUCGGGUGUCAAGG
| Strand | log2 enrichment |
| --- | --- |
| CUGUGCUACACAUCGUAUGUACCGAAUCGGGUUUUUUUGGGUUUUUUUGGGAAAAAAAGGGAAAGUAUUAUGUUACGCCGUUCGGAUCUG | 0.182 |
| ACCAUGCAGGUGGGCAUCUUUGGGAAGUGGGGCAAGGGGGGGAUAGGGAGGGGGGUAACACUUUGGGAACAAAUGGUCCCAGGUCGUUUC | 0.333 |
| CUGUGCUACACAUCGUAUGUACCGAAUCGGGGCCCCCCCGGCCCCCCCGGGGCCCCCCCGGGAAAGUAUUAUGUUACGCCGUUCGGAUCU | 1.28 |
| UGGCCCUGGUGGCAUGCGGGGACGAAGAGGUGGCCUCAUGGAUCGUGGUGGUCCCGGUGGAAUGUUCAGAGGUGGCCGUGGUGGAGACAG | 0.425 |
| GCAGGAAGUAAAAACAAAUGGAAAUGGUUCGGAUAGUGGCAGGGGUGGGGGUUGCUAAGGAAAGGGUGGGAUGGGAGUGGGUAAAGAGUU | -0.711 |
| UUCCUCAAGUCCUGUGCUACACAUCGUAUGUACCGAAUCGGGUGGUGGUGGAAAGUAUUAUGUUACGCCGUUCGGAUCUGCACUUCCAGC | 0.0653 |
| CUCAAGUCCUGUGCUACACAUCGUAUGUACCGAAUCGGGGAAGGGAAGGGAAGGAAAGUAUUAUGUUACGCCGUUCGGAUCUGCACUUCC | -0.583 |
| AGUCCUGUGCUACACAUCGUAUGUACCGAAUCGGGGUGGGGUUUGGGGAAAAAGGGGAAAGUAUUAUGUUACGCCGUUCGGAUCUGCACU | -0.519 |
| AAGUCCUGUGCUACACAUCGUAUGUACCGAAUCGGGCCCCGGGCCCCGGGGCCCCGGAAAGUAUUAUGUUACGCCGUUCGGAUCUGCACU | -0.0682 |
| UGGGAGGUGGAUUUUGUUUAUUCUUUUAGCUCAUUUCCAGGGGUGGGAAUUUUUUUUUAAUAUGUGUCAUGAAUAAAGUUGUUUUUGAAA | -0.0543 |
| CACAGACAACACGCACCCACACAGACACAGCGGGAAGGGGUUGGGAUGGGGACAGGGUGCACAGCAGGGCGGGGUAGGACCCCAGCCCCU | -0.474 |

Set 4
Target: Interferon regulatory factor 5, full length, phosphomimetic (IRF5, Homo sapiens, UniProt Q13568-2, residues 1-514, K96S/S451D/S453D/S456D/S462D)
Method: protein-binding microarray
Form: double-stranded DNA, one strand shown
Medium: in vitro
Concentration: 250 nM
Setting: 60-bp whole probe
Together with: salmon DNA 0.4 mg/ml
Reference: random background probes
Direction: higher = stronger binding
Constant ends, left off below: GCCTAGCAC … GTCTTGATTCGCTTGACGCTGCTG
| Strand | log fluorescence [z-score] |
| --- | --- |
| TTGTTTTTCATCATTGCCTAGTGCTAG | 2.01 |
| AAAGATTTACAAACTGTGAGGGTGCTA | -0.112 |
| TTAGGTTCCGGTTTCGGCTAGTGCTAG | 6.79 |
| TTAGGTAACGACTATCGGTTAGTGCTA | 7.19 |
| TCAGATTTCAGTCTCGATTAGTGCTAG | 2.49 |
| TTAGGTTTCCTGATCCTTTAGTGCTAG | 0.324 |
| TCAATTACCTCATCTTTCACTGTGCTA | 1.72 |
| TTAGGACTGGATATCGGTTAGTGCTAG | 2.38 |
| GACGGACTAGGGTTTCGGGACGTGCTA | 0.953 |
| GACCGTTTCGGTTTCGGGACGTGCTAG | 10.6 |
| CGCAGGGCAGGCTTCGGCCGGTGCTAG | -1.08 |
| GCCGGACTGGGGACTGGGGACGTGCTA | -0.652 |
| TTAGTTTCCAGTTTCGATTAGTGCTAG | 9.77 |
| GAACATACTAGTTTCCATTTGTGCTAG | 1.57 |
| TTAGGTTGCGGTCTCGGTTAGTGCTAG | 1.05 |
| CCGCATATCGGGGTGCGCCCGGTGCTA | -0.139 |
| TGGTATTTTTTTCTAATTGAGTGCTAG | 0.758 |
| GACGGTCTCGGTCTCGAGACGTGCTAG | 0.202 |
| TTAGGTTTCGGGACTGGGTAAGTGCTA | 6.37 |
| GACGGTTCCCCTTTCCTGACGTGCTAG | 0.146 |
| TTAGATATCAGACGGGATTAGTGCTAG | 0.295 |
| TAGAGTAGCTTTCTGAGGGCGTGCTAG | 0.331 |
| CTTTTTTTCAAGAAACAGTTCGTGCTA | 0.98 |
| TGTTTTTTGGTTTCTGGTTTGTGCTAG | 4.02 |

Set 5
Target: Sal-like protein 4, full length isoform B (SALL4, Homo sapiens, UniProt Q9UJQ4-2, residues 1-616)
Method: universal PBM
Form: double-stranded DNA, one strand shown
Medium: in vitro
Concentration: not given
Setting: 8-mer, flanks averaged, mean of replicates
Direction: higher = stronger binding
| Strand | E-score |
| --- | --- |
| CAGTGTTA | 0.0546 |
| CGCCCGAC | -0.219 |
| GAGCCAAA | -0.135 |
| CTTATCCC | 0.0712 |
| CGCATCCG | -0.205 |
| CAACACCG | -0.177 |
| AAGGCTGA | -0.0404 |
| AGCGCAGG | -0.374 |
| CGTACTAC | 0.0578 |
| AGCGCGCG | -0.266 |
| ACCACTCG | -0.159 |
| ATCGTCTA | -0.0674 |
| ACTTCTAC | 0.127 |
| CCGTCGCG | -0.314 |
| CGACACCC | -0.214 |
| GAACCTAC | -0.104 |
| GGCGCACC | -0.387 |
| AGCCTTCA | -0.0176 |
| AGGCTTCC | -0.0459 |
| GGGACTGA | -0.178 |
| GAGGAGAA | -0.062 |
| CCATAGCG | 0.0152 |

For quick reference, copied from above (set 3):
| Strand | log2 enrichment |
| --- | --- |
| UGGCCCUGGUGGCAUGCGGGGACGAAGAGGUGGCCUCAUGGAUCGUGGUGGUCCCGGUGGAAUGUUCAGAGGUGGCCGUGGUGGAGACAG | 0.425 |
| CUGUGCUACACAUCGUAUGUACCGAAUCGGGUUUUUUUGGGUUUUUUUGGGAAAAAAAGGGAAAGUAUUAUGUUACGCCGUUCGGAUCUG | 0.182 |
| GCAGGAAGUAAAAACAAAUGGAAAUGGUUCGGAUAGUGGCAGGGGUGGGGGUUGCUAAGGAAAGGGUGGGAUGGGAGUGGGUAAAGAGUU | -0.711 |
| UGGGAGGUGGAUUUUGUUUAUUCUUUUAGCUCAUUUCCAGGGGUGGGAAUUUUUUUUUAAUAUGUGUCAUGAAUAAAGUUGUUUUUGAAA | -0.0543 |
| UUCCUCAAGUCCUGUGCUACACAUCGUAUGUACCGAAUCGGGUGGUGGUGGAAAGUAUUAUGUUACGCCGUUCGGAUCUGCACUUCCAGC | 0.0653 |
| CUCAAGUCCUGUGCUACACAUCGUAUGUACCGAAUCGGGGAAGGGAAGGGAAGGAAAGUAUUAUGUUACGCCGUUCGGAUCUGCACUUCC | -0.583 |
| AGUCCUGUGCUACACAUCGUAUGUACCGAAUCGGGGUGGGGUUUGGGGAAAAAGGGGAAAGUAUUAUGUUACGCCGUUCGGAUCUGCACU | -0.519 |
| ACCAUGCAGGUGGGCAUCUUUGGGAAGUGGGGCAAGGGGGGGAUAGGGAGGGGGGUAACACUUUGGGAACAAAUGGUCCCAGGUCGUUUC | 0.333 |
| AAGUCCUGUGCUACACAUCGUAUGUACCGAAUCGGGCCCCGGGCCCCGGGGCCCCGGAAAGUAUUAUGUUACGCCGUUCGGAUCUGCACU | -0.0682 |
| CACAGACAACACGCACCCACACAGACACAGCGGGAAGGGGUUGGGAUGGGGACAGGGUGCACAGCAGGGCGGGGUAGGACCCCAGCCCCU | -0.474 |
| CUGUGCUACACAUCGUAUGUACCGAAUCGGGGCCCCCCCGGCCCCCCCGGGGCCCCCCCGGGAAAGUAUUAUGUUACGCCGUUCGGAUCU | 1.28 |
